Experimental data collected from several papers.
Every numbered part comes from another study and shows a few of its results, in no order.

Sample 1
Target: RNA binding protein fox-1 homolog 2, RRM domain, GST-SBP tag (RBFOX2, Homo sapiens, UniProt O43251-10, residues 100-194)
Technique: RNA Bind-n-Seq
Molecule type: RNA
Sample: in vitro
Tested at: 365 nM
Notes: natural RNA segment, single round, ends assumed
Baseline: no-protein control
Direction: higher = stronger binding
Shared flanks, not repeated: GGGAGUUCUACAGUCCGACGAUC … UGGAAUUCUCGGGUGCCAA
Construct (chain): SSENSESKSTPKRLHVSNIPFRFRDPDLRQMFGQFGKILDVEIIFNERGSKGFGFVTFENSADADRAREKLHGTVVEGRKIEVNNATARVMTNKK
Under “RBNS enrichment (R)”, `CUCAUUUAAUCUGUAAAGGUUUGUCGUAAUCCUCUACAAAGCUACUCCCUGUUAUUGUGUGCAAGUUUACACCAGGAUGCUCACUUGAUUUGUGAAUAUUUUUCAUUCCA` is recorded as 0.76.
`UUUCAGUUGUCUUGAAGAGCUCUUGCUACUAACUUUGGGUCCUGCUUUUCAUUUAGGUAGAUGGUAAGCAUUCUCUUAAUCAUAAUUAGAACAAACUAGUGACCAAAUUG` — result for “RBNS enrichment (R)”: 0.401.
`AAAAUAAAUAAAUAAUAAUUUGUGUAUGUGAUGACUGACUCUAGUCAUUAUGGAAAAUAACUUUUGGCAGUUUAGUUCCUAAUGUUAACAAUUCCUCUUUUUAAGAGAGG` — result for “RBNS enrichment (R)”: 0.58.
`CCGGCUGCCUACCAGGGGCCUUCCUGUGUGGCCUGCCUUCACCCCACUCAGCUCACCUCUCCCUCCACCUCCUCUCCACCUGCUGGUGAGAGGUGCAAAGAGGCAGAUCU`: “RBNS enrichment (R)” 0.273.
Under “RBNS enrichment (R)”, `UUAUCCGUUGUCUCUGAAGUGGACAGUAUCCUUUCCUGCCCCGCCAAGCAUGCUCAGUGCCUUUUGGUUUCCCCUCCUUCCCCUAGAUUCAGUUUUGCUCCCUCUGGGUU` is recorded as 2.86.
`CCCAUCCGUGUACGUAUGUGGCAUUUCCAGGUAUGACUGAGUGUGAGAGACAUGUCAGAGGCUCUUCAGUGAUUUCUUGCUAUUGACCGAUGCUUCACUGUGCCAAAAGA` — result for “RBNS enrichment (R)”: 2.37.
For `AAAUGACCAUUAAAUGAGUUUAUAGAUUAUUCUGUAUCAAGAUAAAUCUGAUUCCAGUUAAGCUAUAAACUUGUGGGAUUUUCUUGUAGCCCUAUAGUUCUGUGACUUCA`, “RBNS enrichment (R)” read 0.232.
`UUAUAACUUAUUUCAGAUGUGUCCUUUUAUUGUACAUUUUGUAUAAUAAAUGUUGAAGUUGAAAACUUUACUCGUUUCUAGUUCUUGUGUGAGUUCAUACGUGCCAUAAC` — result for “RBNS enrichment (R)”: 0.302.
`ACCAUGUAAACAUUAGGAAUGAACAGAGGCCUUAGGAAUGAAUAGAGAGUUUGCCUUAUACAAUUUCCUGUUACAAAGCUCUCCCUCUCAUGCAAAGUAGGGAACACCUU` — result for “RBNS enrichment (R)”: 1.12.
`UUGAGGAGGGACCAUGAGAACAGAAAUUACCUUAUGAAAAGCUACUUCUGUUCCUGCUUUCCCUCUCACGUAUUGACGGUUUAUUUCUUUGACCUCCCAGAGGGCUGAAC`: “RBNS enrichment (R)” 0.426.
For `GAACCCUCCAAUUCAGGAAGUGGGAAAAGGAGCCAGGAAAUGUGCUUCUACUUUGCCAGUUAUUUCAGACAGCACUACCAAGAGGAGGUGGUCAGCACUUGUUAUUGGCC`, “RBNS enrichment (R)” read 0.741.
`UUUUCCCUUUUUCUGCUGCUCUUGGCAGCAGCCUGGUCAUCAUCUGCUUGUGGGAGUGGGAAAUGGGUAUUUUAGACCCAACACAGGUUCUAAAUUUAAAACAAAUAAUA`: “RBNS enrichment (R)” 0.507.

Sample 2
Target: Sal-like protein 4, full length isoform B (SALL4, Homo sapiens, UniProt Q9UJQ4-2, residues 1-616)
Technique: universal PBM
Molecule type: double-stranded DNA, one strand shown
Sample: in vitro
Tested at: not given
Notes: 8-mer, flanks averaged, mean of replicates
Direction: higher = stronger binding
`CATGCGGG` has an E-score of -0.313.
With `CTAAATGC` the E-score was 0.0341.
`ACCAGTAT` has an E-score of -0.112.
`AGTCTTAG` gave an E-score of -0.178.
The E-score of `GGATACCA` is reported as -0.0868.
`AGGACGTA` gave an E-score of -0.0112.
`GATCCCCA` gave an E-score of -0.226.
With `CCAATACG` the E-score was 0.122.
The E-score of `ACGCGAGC` is reported as -0.234.
`CGCAGGAC` has an E-score of -0.237.
The E-score of `CATACGAA` is reported as 0.187.
For `CCTCTCCG`, the E-score was -0.34.
`AGCGTGTA` gave an E-score of 0.0934.
The E-score of `GCACCAAA` is reported as 0.0983.
`ACGGCGGC` gave an E-score of -0.347.
With `GCCTGCTA` the E-score was -0.123.
`CATGCCTA` gave an E-score of -0.0184.
With `CACCGCCC` the E-score was -0.186.
The E-score of `GGCGATCA` is reported as -0.154.
For `GTCTCGAA`, the E-score was -0.0178.
`AAAAAAGT` has an E-score of 0.191.
With `ACAGTTCT` the E-score was 0.0693.
For `ACCTACCA`, the E-score was -0.0836.
`AGTCCTGC` gave an E-score of -0.169.
For `CGTTGTAC`, the E-score was 0.187.

Sample 3
Target: Interferon regulatory factor 5, full length, phosphomimetic (IRF5, Homo sapiens, UniProt Q13568-2, residues 1-514, S451D/S453D/S456D/S462D)
Technique: protein-binding microarray
Molecule type: double-stranded DNA, one strand shown
Sample: in vitro
Tested at: 940 nM top
Notes: 60-bp whole probe
Together with: salmon DNA 0.4 mg/ml
Baseline: random background probes
Direction: higher = stronger binding
Shared flanks, not repeated: GCCTAGCAC … GTCTTGATTCGCTTGACGCTGCTG
Under “fitted relative affinity”, `TTAGGTTGCGGTCTCGGTTAGTGCTAG` is recorded as 2.88 z-score.
For `AACGGACTGCTTTTCCTGACGTGCTAG`, “fitted relative affinity” read -0.143 z-score.
Under “fitted relative affinity”, `AGTAGCTGGGATTACAGGCAGTGCTAG` is recorded as -0.514 z-score.
For `GTCGATTTCGGGTTTCGAGACGTGCTA`, “fitted relative affinity” read 4.29 z-score.
For `GACGATATCGGGTTACGAGACGTGCTA`, “fitted relative affinity” read 0.175 z-score.
Under “fitted relative affinity”, `TTAGGAGTGGGGTTTCGGTTAGTGCTA` is recorded as 5.88 z-score.
`GACGCTCTCAGTCTCGAGACGTGCTAG`: “fitted relative affinity” 1.99 z-score.
`TCATAATTCTGATTGGAACTGTGCTAG`: “fitted relative affinity” -0.404 z-score.
`GAACATTTCAATTAGAAAAAGTGCTAG`: “fitted relative affinity” -0.159 z-score.
`GACGGTCTCGACTATCGGGACGTGCTA` — result for “fitted relative affinity”: 1.46 z-score.
`TTAGATTCCAGTTTCGACTAGTGCTAG` — result for “fitted relative affinity”: 5.35 z-score.
Under “fitted relative affinity”, `GACGGACTGGGATTCGGGACGTGCTAG` is recorded as -0.647 z-score.
For `TCATGGTTCTTGCTTGGTACTGTGCTA`, “fitted relative affinity” read 0.324 z-score.
`GACGGACTGGTACTGGGGACGTGCTAG` — result for “fitted relative affinity”: -0.338 z-score.
For `GACGGTATCGACGCTGGGGACGTGCTA`, “fitted relative affinity” read 3.19 z-score.
`GTTTGTATATATTTTAACCCGTGCTAG`: “fitted relative affinity” 0.315 z-score.

Sample 4
Target: RING finger protein unkempt homolog, zinc fingers 1-6, GST-SBP tag (UNK, Homo sapiens, UniProt Q9C0B0, residues 30-357)
UniProt Q9C0B0, sequence (30-357, looked up): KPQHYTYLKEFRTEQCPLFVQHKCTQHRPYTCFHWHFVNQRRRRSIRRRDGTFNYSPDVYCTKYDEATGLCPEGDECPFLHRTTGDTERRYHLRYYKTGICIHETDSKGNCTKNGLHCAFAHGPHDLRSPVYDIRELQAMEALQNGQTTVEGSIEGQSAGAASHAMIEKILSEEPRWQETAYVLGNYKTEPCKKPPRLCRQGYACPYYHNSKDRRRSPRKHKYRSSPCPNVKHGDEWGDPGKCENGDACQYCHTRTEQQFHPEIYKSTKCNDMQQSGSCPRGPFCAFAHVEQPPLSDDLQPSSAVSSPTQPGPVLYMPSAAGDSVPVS
Technique: RNA Bind-n-Seq
Molecule type: RNA
Sample: in vitro
Tested at: not given
Notes: RNA with constant flanks, ends assumed
Baseline: input RNA pool
Direction: higher = stronger binding
Shared flanks, not repeated: GGGAGUUCUACAGUCCGACGAUC … CAACAGAGGAUUGAGCAUCA
`UAUAGCUACGCCCUUGGUCAGGGGUGGGGUGGGGCUGGUUGAGGGUGGGGGUGGGAUGGGACCCGAGGGCAACAUUGAAGGGGUUAAACAGGUUCCUGAAUUUGUUUGCCUGGGCCCAAU` gave a bound/input enrichment of 1.32 ratio.
For `GCCUUGGUCCUAGCACCCACUCGAGAAUUGGCUCAGCAGAUACAGAAGGUGGUCAUGGCACCCGGAGACUACAUGGGCGCCUCCUGUCACGCCUGUAUCGGGGGCACCAACGUGCGUGCU`, the bound/input enrichment was 0.129 ratio.
The bound/input enrichment of `CCCACACCAAGGGGCCAUGUGCAGCAAGAGCCAAGCAGGCAGCUGUCCAUACUCACUGCCCCGGUGACCCCAGCCCCAGGGCCCAGCCCCAGCCAUUCUGGCUUCAUGCCAGAGGCAGUU` is reported as 0.101 ratio.
`GGAGUUAAAGCUGUGUUUAUGAAUAAACAUGACUGGUAUGAAGAAUAUCCAACCACACCCCGCUCUUUUGUUUUAAAUGGCUUUAUGUAUUCUUUAAUUGGGCUGUAUGACUUAAAAGAA` gave a bound/input enrichment of 0.445 ratio.
The bound/input enrichment of `UGCCUCUCAUUCAAUCCCUACAGCGAGUUCAUUCUGGCAACUGGCUCUGCAGAUAAGACUGCCGCUUUAUGGGACCUGCGUAAUCUGAAACUAAAACUCCACACCUUUGAAUCGCAUAAG` is reported as 0.214 ratio.
`UAUAUGUAUGUUUUCAUUCCUGUUUUGUACGAGUGCCUCAUUUUGUAGUCAUGAAAGUAACACCGUACCUUAAAUAAAAAUGUAAUGACUAAUCUAAGGUCUAGGAAUAACUAUUGUAGA` has a bound/input enrichment of 0.543 ratio.
For `CAAUUAUCUCAUGAUGUACGUCAGGCCUUUCCAGUUAUUCCAAACAAUACAAAGUGACAAUACCGUUGGCUUCUAACUAUAGUACAAAUUUGAUUACAGUUAAUAUACUUAAGAUAUUAC`, the bound/input enrichment was 1.58 ratio.
`GUUAUCUCCAACAAAGCCGCAGUAGCUGGGUUAGAUAAAGCGGAAAGAGCUGGUAUUCCCACCCGAGUAAUUAAUCAUAAACUGUAUAAAAAUCGUGUAGAAUUUGACAGUGCAAUUGAC` gave a bound/input enrichment of 0.329 ratio.
`AAAUGACAAGCGAUAGGCUAUUGCAACCUGAGAAAGAGAACUGCUCCUUCAUCGUAAAUUCCGAAGACCAAGUAGAUAAUGGAACCAAAGUUGUUACUUUUUUCUAGUAGUUAUUUUUCC` has a bound/input enrichment of 0.866 ratio.
`GCUUUUUAUCUUCUAGCAUUUUUUUACUACCUAUAUGGCAUGAUCUAUGUUUUGGUGAGCUCUCCGAACAACACACAGAAGAAUUGGUCCAGUUAAGUGCAUGCAAAAAGCCACCAAAUG` gave a bound/input enrichment of 3.77 ratio.
With `ACAUCUCCAGCAGCAGACAACAUAGAAAAGGAGGCGCUUCCUCGUUAUGAGCCAAUUCCAUUCCGUGCUUCUAUGAACGAGUCCACUCCCACUGGUAUUACUGACCAUAUUGCCCAAGGA` the bound/input enrichment was 0.215 ratio.
